Experimental data collected from several papers.
Every numbered part comes from another study and shows a few of its results, in no order.
Sequence of UniProt Q15208 (whole entry, looked up): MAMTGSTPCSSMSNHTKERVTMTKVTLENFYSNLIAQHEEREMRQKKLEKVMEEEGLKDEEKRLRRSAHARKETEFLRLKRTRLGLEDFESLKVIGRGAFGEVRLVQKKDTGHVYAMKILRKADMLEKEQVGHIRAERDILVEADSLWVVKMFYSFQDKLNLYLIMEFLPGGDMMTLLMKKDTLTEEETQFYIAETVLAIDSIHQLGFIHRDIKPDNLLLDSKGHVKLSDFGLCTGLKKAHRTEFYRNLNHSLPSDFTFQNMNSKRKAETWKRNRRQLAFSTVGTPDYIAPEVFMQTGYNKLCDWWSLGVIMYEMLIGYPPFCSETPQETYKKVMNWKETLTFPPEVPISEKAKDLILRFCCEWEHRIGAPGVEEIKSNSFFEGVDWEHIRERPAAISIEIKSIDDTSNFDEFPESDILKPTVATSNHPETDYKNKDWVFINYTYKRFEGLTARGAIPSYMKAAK
Sequence of UniProt Q8NG66 (whole entry, looked up): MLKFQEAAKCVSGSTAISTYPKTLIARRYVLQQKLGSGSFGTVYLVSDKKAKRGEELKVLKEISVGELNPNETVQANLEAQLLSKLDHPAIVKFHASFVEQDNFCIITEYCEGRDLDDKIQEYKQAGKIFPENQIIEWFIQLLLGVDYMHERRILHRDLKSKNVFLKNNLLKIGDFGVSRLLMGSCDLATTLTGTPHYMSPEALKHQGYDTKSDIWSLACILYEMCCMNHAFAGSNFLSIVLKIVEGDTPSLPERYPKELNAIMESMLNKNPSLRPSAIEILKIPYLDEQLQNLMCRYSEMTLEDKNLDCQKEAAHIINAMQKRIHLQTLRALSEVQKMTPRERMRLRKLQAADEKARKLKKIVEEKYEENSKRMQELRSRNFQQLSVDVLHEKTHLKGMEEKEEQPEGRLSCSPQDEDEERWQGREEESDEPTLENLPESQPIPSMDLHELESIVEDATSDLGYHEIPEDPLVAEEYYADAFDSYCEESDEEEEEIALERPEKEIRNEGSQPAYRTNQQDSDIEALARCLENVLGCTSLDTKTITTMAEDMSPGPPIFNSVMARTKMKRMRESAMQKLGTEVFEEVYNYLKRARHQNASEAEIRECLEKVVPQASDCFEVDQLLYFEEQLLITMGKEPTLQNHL
Sequence of UniProt P21802 (whole entry, looked up): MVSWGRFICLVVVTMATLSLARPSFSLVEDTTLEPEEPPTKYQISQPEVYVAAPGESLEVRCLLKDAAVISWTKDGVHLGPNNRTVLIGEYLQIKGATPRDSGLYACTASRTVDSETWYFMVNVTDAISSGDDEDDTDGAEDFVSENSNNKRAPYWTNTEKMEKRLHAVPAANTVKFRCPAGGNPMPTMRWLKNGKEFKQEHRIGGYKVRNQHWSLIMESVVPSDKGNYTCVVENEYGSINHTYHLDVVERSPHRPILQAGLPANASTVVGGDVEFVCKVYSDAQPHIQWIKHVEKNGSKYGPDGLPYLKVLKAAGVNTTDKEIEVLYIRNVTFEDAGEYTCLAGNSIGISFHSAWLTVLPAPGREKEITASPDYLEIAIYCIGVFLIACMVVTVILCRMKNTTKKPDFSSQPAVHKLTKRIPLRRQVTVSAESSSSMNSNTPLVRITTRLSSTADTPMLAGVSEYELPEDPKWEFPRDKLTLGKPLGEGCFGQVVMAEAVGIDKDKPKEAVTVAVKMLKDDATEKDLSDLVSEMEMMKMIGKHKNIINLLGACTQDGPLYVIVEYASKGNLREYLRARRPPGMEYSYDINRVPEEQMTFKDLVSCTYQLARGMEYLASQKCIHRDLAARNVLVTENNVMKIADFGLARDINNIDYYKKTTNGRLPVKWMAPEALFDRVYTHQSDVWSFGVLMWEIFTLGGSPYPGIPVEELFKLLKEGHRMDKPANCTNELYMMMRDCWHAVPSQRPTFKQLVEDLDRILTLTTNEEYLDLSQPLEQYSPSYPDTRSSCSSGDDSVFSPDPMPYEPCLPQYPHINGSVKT
Sequence of UniProt Q07912 (whole entry, looked up): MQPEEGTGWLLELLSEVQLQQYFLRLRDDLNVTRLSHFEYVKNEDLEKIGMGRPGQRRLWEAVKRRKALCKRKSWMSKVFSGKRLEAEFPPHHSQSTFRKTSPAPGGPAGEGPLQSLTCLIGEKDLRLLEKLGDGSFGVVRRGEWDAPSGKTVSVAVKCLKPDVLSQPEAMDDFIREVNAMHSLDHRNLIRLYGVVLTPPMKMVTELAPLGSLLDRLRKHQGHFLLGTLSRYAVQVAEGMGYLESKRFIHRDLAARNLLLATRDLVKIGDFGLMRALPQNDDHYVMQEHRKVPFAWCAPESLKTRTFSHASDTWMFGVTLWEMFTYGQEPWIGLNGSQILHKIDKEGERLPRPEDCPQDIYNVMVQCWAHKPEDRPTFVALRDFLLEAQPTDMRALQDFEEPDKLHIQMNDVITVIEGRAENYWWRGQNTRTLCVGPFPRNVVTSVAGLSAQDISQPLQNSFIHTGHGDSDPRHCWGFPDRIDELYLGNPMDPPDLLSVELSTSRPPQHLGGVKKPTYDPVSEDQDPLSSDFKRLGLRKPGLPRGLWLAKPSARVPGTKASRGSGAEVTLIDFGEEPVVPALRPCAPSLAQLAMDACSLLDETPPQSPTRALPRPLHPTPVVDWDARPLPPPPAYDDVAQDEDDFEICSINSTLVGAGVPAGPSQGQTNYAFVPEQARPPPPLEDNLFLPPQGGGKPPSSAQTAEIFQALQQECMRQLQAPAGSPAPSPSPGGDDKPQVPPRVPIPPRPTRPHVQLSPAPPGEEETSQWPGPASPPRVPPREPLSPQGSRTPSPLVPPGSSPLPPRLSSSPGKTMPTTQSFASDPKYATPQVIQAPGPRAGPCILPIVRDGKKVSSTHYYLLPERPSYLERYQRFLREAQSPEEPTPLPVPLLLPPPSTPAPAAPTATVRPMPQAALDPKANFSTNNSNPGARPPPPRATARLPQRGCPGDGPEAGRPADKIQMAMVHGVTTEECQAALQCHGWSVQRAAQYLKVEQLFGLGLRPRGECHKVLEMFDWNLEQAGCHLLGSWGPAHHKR
Sequence of UniProt Q16584 (whole entry, looked up): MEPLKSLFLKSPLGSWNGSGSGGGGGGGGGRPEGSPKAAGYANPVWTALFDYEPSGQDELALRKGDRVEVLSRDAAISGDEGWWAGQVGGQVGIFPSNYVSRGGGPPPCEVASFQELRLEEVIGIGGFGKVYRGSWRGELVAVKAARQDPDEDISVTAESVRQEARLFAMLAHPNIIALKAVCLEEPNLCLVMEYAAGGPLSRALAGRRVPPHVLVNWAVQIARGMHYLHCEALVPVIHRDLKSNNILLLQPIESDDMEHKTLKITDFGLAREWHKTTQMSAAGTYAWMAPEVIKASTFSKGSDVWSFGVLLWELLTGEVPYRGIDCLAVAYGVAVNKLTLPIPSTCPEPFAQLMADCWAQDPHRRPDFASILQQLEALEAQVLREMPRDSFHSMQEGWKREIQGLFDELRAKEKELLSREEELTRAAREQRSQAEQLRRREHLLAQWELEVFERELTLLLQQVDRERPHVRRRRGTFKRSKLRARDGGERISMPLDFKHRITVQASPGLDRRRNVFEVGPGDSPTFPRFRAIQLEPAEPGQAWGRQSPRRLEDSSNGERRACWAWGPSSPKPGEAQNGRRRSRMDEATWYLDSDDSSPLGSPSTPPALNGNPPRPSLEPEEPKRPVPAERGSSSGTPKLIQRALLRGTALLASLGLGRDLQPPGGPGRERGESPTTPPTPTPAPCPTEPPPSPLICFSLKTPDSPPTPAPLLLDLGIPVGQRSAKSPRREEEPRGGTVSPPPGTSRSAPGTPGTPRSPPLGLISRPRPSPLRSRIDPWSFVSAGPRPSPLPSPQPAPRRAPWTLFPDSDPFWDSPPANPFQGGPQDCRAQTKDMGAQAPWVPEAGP
Sequence of UniProt P07947 (whole entry, looked up): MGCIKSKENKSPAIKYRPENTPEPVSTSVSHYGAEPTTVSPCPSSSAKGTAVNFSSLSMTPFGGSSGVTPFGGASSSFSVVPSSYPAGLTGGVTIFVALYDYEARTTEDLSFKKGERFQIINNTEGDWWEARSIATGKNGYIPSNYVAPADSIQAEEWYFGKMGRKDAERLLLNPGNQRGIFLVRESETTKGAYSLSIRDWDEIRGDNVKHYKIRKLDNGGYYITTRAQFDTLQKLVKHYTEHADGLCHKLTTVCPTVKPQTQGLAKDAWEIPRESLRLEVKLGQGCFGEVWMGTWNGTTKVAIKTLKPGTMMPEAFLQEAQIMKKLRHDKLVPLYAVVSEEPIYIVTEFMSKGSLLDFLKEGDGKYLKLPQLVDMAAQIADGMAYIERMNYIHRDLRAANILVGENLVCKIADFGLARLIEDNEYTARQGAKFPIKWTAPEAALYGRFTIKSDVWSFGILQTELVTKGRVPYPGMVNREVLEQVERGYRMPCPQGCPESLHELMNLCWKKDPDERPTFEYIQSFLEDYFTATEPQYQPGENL

Series 1
Target: Histone acetyltransferase KAT6A, winged helix 2, GST fusion (KAT6A, Homo sapiens, UniProt Q92794, residues 85-181)
Technique: protein binding microarray
Molecule type: double-stranded DNA, one strand shown
Medium: in vitro
Concentration: not given
Setting: 8-mer, flanks averaged, mean of 2 arrays, mostly near background
Reference: not given
Direction: higher = stronger binding
Construct (chain): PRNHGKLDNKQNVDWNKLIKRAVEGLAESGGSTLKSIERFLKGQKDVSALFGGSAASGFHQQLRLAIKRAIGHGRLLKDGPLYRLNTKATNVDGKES
Sequence	E-score
AACGCGCC	0.135
CTCGCCGA	0.056
GCACGGCC	0.116
CCTGCAAA	0.0526
GATGACAC	0.0141
AAGCGCCT	-0.0592
CCGGGGCA	0.13
AACGTAAC	-0.214

Series 2
Organism: Sarcocystis neurona
Observed: parasite growth
Concentration: concentration not given
Setting: second screen
Reference: untreated
Structure (SMILES)	log2 fold change
C[C@]12CCC(=O)C=C1CC[C@@H]1[C@@H]2[C@@H](O)C[C@@]2(C)[C@H]1CC[C@]2(O)C(=O)COC(=O)CCC(=O)O	0.0755
C[C@H](N[C@@H](CCc1ccccc1)C(=O)O)C(=O)N1CCC[C@H]1C(=O)O	0.09
CCOC(=O)c1ccc(OC(=O)CCCCCN=C(N)N)cc1.CS(=O)(=O)O	0.28

Series 3
Target: Beta-1 adrenergic receptor (ADRB1, Homo sapiens, UniProt P08588)
Sequence of UniProt P08588 (whole entry, looked up): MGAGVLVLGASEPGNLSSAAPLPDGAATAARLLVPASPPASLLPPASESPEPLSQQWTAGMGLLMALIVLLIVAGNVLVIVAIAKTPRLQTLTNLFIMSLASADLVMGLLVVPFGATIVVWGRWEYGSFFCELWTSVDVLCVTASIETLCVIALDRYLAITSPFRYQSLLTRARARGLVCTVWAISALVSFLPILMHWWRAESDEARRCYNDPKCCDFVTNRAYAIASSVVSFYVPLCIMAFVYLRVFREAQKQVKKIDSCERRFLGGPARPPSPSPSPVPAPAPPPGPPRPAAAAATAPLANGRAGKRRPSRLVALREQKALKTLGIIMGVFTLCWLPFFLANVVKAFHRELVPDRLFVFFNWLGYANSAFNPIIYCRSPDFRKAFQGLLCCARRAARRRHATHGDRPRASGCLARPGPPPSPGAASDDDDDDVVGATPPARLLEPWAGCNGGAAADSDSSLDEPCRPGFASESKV
Mode: antagonist
Structure (SMILES)	IC50 [µM]
O=S(=O)(O)c1cc(I)c(O)c2ncccc12	≥ 100
COCCn1ccc2c(C3=CCOCC3)nc(-c3cccc(O)c3)cc21	≥ 100
COc1ccccc1N1CCN([S+](=O)([O-])N2CCC(C)C2)CC1 (stereo not drawn)	≥ 100

Series 4
Structure (SMILES): CNC(=O)Nc1ccc2c(c1)CC[C@@]21OC(=O)N(CC(=O)N(Cc2ccc(F)cc2)[C@@H](C)C(F)(F)F)C1=O
Observed: cell-free assay
Technique: competition with immobilised ligand
Concentration: 1 µM
target	remaining binding [%]
MAP3K11 (Homo sapiens, UniProt Q16584)	73
STK38 (Homo sapiens, UniProt Q15208)	100
MAP3K14 (Homo sapiens, UniProt Q99558)	67
YES1 (Homo sapiens, UniProt P07947)	76
BMX (Homo sapiens, UniProt P51813)	72
NEK11 (Homo sapiens, UniProt Q8NG66)	91
PRKCD (Homo sapiens, UniProt Q05655)	76
FGFR2 (Homo sapiens, UniProt P21802)	88
TNK2 (Homo sapiens, UniProt Q07912)	90
Tyrosine-protein kinase ABL1, phosphorylated (ABL1, Homo sapiens, UniProt P00519, Q252H)	81
KIT (Homo sapiens, UniProt P10721, A829P)	79
SRPK2 (Homo sapiens, UniProt P78362)	100

Series 5
Host: mouse
Medium: microsomes or S9
Concentration: 2 µM
Time: 0.5 h
Structure (SMILES)	remaining compound
CN(Cc1ccccc1)C(=O)COc1ccc2c3ccccc3n(C(=O)c3ccc(C(C)(C)C)cc3)c2c1	2.62%
O=C1C=C(N(Cc2ccc(Cl)nc2)Cc2cnc(Cl)s2)CO1	56.6%
CN(C)S(=O)(=O)c1ccc(C(=O)Nc2ccncc2)o1	25.2%
CC(=O)/C(=C1\NC(C)(C)Cc2cc(C)c(C)cc21)c1ccccc1	1.18%

Repeated from above (series 4):
target	remaining binding [%]
MAP3K11 (Homo sapiens, UniProt Q16584)	73
SRPK2 (Homo sapiens, UniProt P78362)	100
FGFR2 (Homo sapiens, UniProt P21802)	88
TNK2 (Homo sapiens, UniProt Q07912)	90
